Experimental data pooled from the literature.
Each numbered part is a random draw from the data of one study; scales do not carry over between parts.

Set 1
Target: Cln2 (Saccharomyces cerevisiae)
Read-out: peptide binding
Method: competitive growth sequencing
Form: peptide
Organism: Saccharomyces cerevisiae
Strain: unfused Cln2 strain
Setting: peptide tiling library
Reading: direction not given
| Molecule | enrichment score |
| --- | --- |
| DSGFCLDSPGPLDSKE | 1.28 |
| LFVPQRKLEVSTEDVH | -0.317 |
| VEEEFFALRKRTPSAG | 0.0651 |
| ALTMEALEDPSPELME | 0.0523 |
| HRRRLLFACSPPPASQ | -1.19 |

Set 2
Target: Prothrombin, mature alpha-thrombin (F2, Homo sapiens, UniProt P00734)
Method: aptamer microarray, sandwich
Form: DNA with 2'F-ANA
Matrix: in vitro
Tested at: 200 nM
Setting: whole 15-mer aptamer, many near background
With: Cy3 exosite-II aptamer, 400 nM
Reading: higher = stronger binding
Oligonucleotide: GGTTGGTGTGGTTGG
| Modification | mean fluorescence intensity |
| --- | --- |
| 2'F-ANA at 2 3 6 7 9 11 12 14 | 360 a.u. |
| 2'F-ANA at 6 8 9 13 14 | 208 a.u. |
| 2'F-ANA at 2 3 4 6 7 11 12 14 | 304 a.u. |
| 2'F-ANA at 4 6 10 14 15 | 56.8 a.u. |
| 2'F-ANA at 1 3 4 5 6 7 8 9 | 66.7 a.u. |
| 2'F-ANA at 2 3 4 10 11 13 14 | 174 a.u. |
| 2'F-ANA at 1 2 3 5 7 8 9 10 11 13 14 15 | 50.8 a.u. |
| 2'F-ANA at 4 5 7 9 10 11 13 15 | 42.6 a.u. |
| 2'F-ANA at 3 4 5 6 7 9 11 13 14 15 | 83.4 a.u. |
| 2'F-ANA at 1 2 3 7 9 12 13 14 | 80.9 a.u. |
| 2'F-ANA at 1 5 7 8 9 12 13 14 | 44.2 a.u. |
| 2'F-ANA at 2 4 11 12 13 15 | 380 a.u. |
| 2'F-ANA at 2 4 5 6 7 8 10 12 | 50 a.u. |
| 2'F-ANA at 1 2 3 6 8 9 15 | 247 a.u. |
| 2'F-ANA at 2 3 6 8 12 | 1060 a.u. |
| 2'F-ANA at 1 2 5 6 8 10 13 14 | 49.5 a.u. |
| 2'F-ANA at 3 5 6 7 9 10 13 14 | 49.8 a.u. |
| 2'F-ANA at 4 7 8 9 12 13 14 | 107 a.u. |
| 2'F-ANA at 3 5 6 8 10 11 12 13 15 | 58.5 a.u. |

Set 3
Target: Histone acetyltransferase KAT6A, winged helix 1, GST fusion (KAT6A, Homo sapiens, UniProt Q92794, residues 1-85)
Method: protein binding microarray
Form: double-stranded DNA, one strand shown
Matrix: in vitro
Tested at: not given
Setting: 8-mer, flanks averaged, mean of 2 arrays, mostly near background
Relative to: not given
Reading: higher = stronger binding
Construct (chain): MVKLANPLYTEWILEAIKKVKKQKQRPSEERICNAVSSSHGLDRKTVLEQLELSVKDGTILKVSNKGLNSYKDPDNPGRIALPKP
| Oligonucleotide | E-score |
| --- | --- |
| TTAACCAA | -0.282 |
| GTGATGAA | -0.227 |
| CCCACACA | -0.173 |
| CGAATCGC | 0.207 |
| GGTAATAA | -0.0015 |
| GTCGAAAC | -0.154 |
| AAGGTGAA | -0.0541 |
| AATTGATC | -0.0396 |
| AATCTCTG | -0.221 |
| CCAAGTCA | -0.299 |
| GAAGATGA | -0.122 |
| TCAGAAAA | -0.282 |
| CTTGTACA | -0.191 |
| CAGGCTAG | -0.173 |
| AACGCGGG | 0.372 |
| AGAGTCTC | -0.0575 |
| ATCGTTTC | -0.155 |
| CATAATCC | -0.244 |

Set 4
Target: RING finger protein unkempt homolog, zinc fingers 1-6, SBP tag (UNK, Homo sapiens, UniProt Q9C0B0, residues 30-357)
Chain of UniProt Q9C0B0 (30-357, looked up): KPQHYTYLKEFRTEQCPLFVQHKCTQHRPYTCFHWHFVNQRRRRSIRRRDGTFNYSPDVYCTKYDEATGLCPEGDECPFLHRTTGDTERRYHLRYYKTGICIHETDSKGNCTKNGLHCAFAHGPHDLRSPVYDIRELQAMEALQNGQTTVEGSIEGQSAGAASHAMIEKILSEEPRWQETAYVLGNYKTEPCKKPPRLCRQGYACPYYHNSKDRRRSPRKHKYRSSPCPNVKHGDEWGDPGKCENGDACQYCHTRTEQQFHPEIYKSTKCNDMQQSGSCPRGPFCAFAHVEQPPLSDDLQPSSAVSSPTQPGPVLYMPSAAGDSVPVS
Method: RNA Bind-n-Seq
Form: RNA
Matrix: in vitro
Tested at: 100 nM
Setting: RNA with constant flanks, vertebrate orthologous sites, ends assumed
Relative to: input RNA pool
Reading: higher = stronger binding
All sequences stand within: GGGAGUUCUACAGUCCGACGAUC … CAACAGAGGAUUGAGCAUCA
| Oligonucleotide | bound/input enrichment |
| --- | --- |
| CAAGCUCAUUAAGAAAAGCAAUUUUAAAACUGUAUUUAUUUAUGUUUGUAAACUUGUACAUAGUAACAACCCUGCAAAUGUUCUGUUACUCGAUUUUACAUCUUUUAGGUUCUUUUAGGG | 0.788 ratio |
| GGACUAAUUUGAUUUUUUAACCCCUUAUUUUCCUGAUUUAACCCCCCUCUUUUUUCUUAAGCAUAUGUAGUAACGUUAGCAGAAAGUUAAUUUGGAAAACUGAUUCUUAAAAAGAAAACA | 0.323 ratio |
| GUUUUUUCAUGAGACAUGUCUAUCUAGAGAAGUAGGUAAUCUUAUUGAUAUGAAAUAAUUUACCUAGCCUAAUUUUUAGGCAUUGUAUGUAAAGUAUUUAAAGUGAAUUUGAAAAAAAAA | 0.378 ratio |
| CUUGCUGCUUCUGACACGAUUUACCAUAUGCACAAUCGUAAUUCCUUUUCCGCACAAUCCUUACUAAUGCCCGACCUUCCUCUACCUUCAGUGUUAUUUAUCAAUGUCUGCUUCUUCAUA | 1.34 ratio |
| GGACCAUACAUAUACAAUGUGUAUCAAAUGCUGGUUGCAAAAUUAAACCAUCAUCUAGAAUAGAGUUAAUUUGUUAUAAUCAAGUUACAAAUAGGUUUUCUUAAACCAGAGAUGCACCGC | 0.496 ratio |
| AUUUUUACAAUCUUACUGUAUUUUCAAACAAUAGGGAACUUUUUUUUUUUUUUUACAGUUUAGUGUAUCUGGUUUCUACAUGGAAGACUUAAGUUCAUGCUUAUUGCUAAAUGUGGUCUU | 0.759 ratio |
| UGAGAGAGAGAUUUCUGUGGUUUUUAAUAUUUAAUUUGUUCUUUUUAAAAUAUUCCAAUAUGCCAUUUUUGAUGGAACUGGUAUAUUGACAGUUCUCACCUAAGUCUUCAUGAAGAAUCG | 0.669 ratio |
| UUGGGACCAACUCUCCAAAUAGGAAUAGUAGUAAAAAAAAUAAGCAAAAUGAUAUUUGUAUAGAAAAAACAGAAGUUAAAUCAUGUAAAGUAAAUGCUGCCAGUGUUCCAGGUAAAGAUU | 1.78 ratio |
| UCCAAGCACCCUGGUCAAGACUGUGGACUGGCUGCUUGUAUUCUCCUUAUUCUUUUUAAUUAGUUUCAUUAUGUAUGCUACCAUCCGGACUGAGAGCAUUCGGUGGCUGAUUCCGGGGCA | 3.3 ratio |
| UAAUUAAUCAGUUGAAUUGUAUUCUUAUCAAAUGUAACAUUGUGUAGCUUUUGUAUAAAACCAAGAAUUGGAGAAGUCCAAAUAUCAGCUCUCUUGCUUUAAUGAAAUCACCAGUUUUGU | 0.344 ratio |
| UAUUAGUGUCGUACCAGCCUAUUAACCUCUCGUCUGUGCACAGCUUCAAAUGUUACCGUCUAGUUAGAUUUUUAUUUAAAAUAUGAAAAACUGCUUUUCCCAAGACGUUUUUUAGAAACA | 1.59 ratio |

Single results of other studies
| Molecule | target | assay | test system | setting | scale | measurement | result |
| --- | --- | --- | --- | --- | --- | --- | --- |
| PhoQ, residues 284 288 289 292 302 303 QWGLFV | PhoP, residues 12 14 15 18 19 SYFRT (Escherichia coli, UniProt P23836) | Sort-seq, refers to: YFP reporter | E. coli | PhoQ-PhoP variant library, with: 10 µM Mg2+ | relative to: high Mg2+ state, higher = stronger signaling | fold induction | 0.821 |
